Published values pooled from the literature.
Parts stem from different laboratories: compare values within a part only.

Set 1
Target: Interferon regulatory factor 7, full length, phosphomimetic (IRF7, Homo sapiens, UniProt Q92985, residues 1-503, S101K/S471D/S472D/S475D/S476D/S477D/S483D/S484D/S487D)
Technique: protein-binding microarray
Molecule type: double-stranded DNA, one strand shown
Matrix: in vitro
Tested at: 250 nM
Notes: 60-bp whole probe
Added: salmon DNA 0.4 mg/ml
Relative to: random background probes
Direction: higher = stronger binding
Shared flanks, not repeated: GCCTAGCAC … GTCTTGATTCGCTTGACGCTGCTG
Construct (chain): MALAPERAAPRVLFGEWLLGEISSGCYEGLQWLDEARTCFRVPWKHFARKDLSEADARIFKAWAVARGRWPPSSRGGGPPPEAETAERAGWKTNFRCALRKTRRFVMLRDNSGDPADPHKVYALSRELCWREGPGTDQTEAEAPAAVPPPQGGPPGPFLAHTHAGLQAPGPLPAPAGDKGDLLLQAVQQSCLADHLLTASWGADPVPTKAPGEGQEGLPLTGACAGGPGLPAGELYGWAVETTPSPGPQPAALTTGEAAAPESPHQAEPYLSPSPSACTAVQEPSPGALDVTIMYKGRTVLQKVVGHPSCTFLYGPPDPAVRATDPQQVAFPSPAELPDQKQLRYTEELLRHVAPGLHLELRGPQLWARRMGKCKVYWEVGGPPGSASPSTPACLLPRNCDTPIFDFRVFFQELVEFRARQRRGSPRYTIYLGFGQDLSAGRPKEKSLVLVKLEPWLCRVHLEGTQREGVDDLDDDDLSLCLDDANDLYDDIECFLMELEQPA
With `TAAATTCTGAAAATGGAAACGTGCTAG` the log fluorescence was 0.232 z-score.
`GACGGACTGGGTCTCTGGACGTGCTAG` has a log fluorescence of -0.9 z-score.
`GGGCATTTGGAAAATGTAAACGTGCTA` gave a log fluorescence of -0.412 z-score.
`GACGGTTTCCTTTCCCTTACGTGCTAG` gave a log fluorescence of 4.71 z-score.
The log fluorescence of `TTCGGTCTCCTACTGCTTTAGTGCTAG` is reported as 0.0964 z-score.
`TTCATTTACATTTCCAATACGTGCTAG` gave a log fluorescence of 1.21 z-score.
`TCATTTCCATTTTCTGAAACTGTGCTA` has a log fluorescence of 3.89 z-score.
For `GTAGATATCAGACTGGATTAGTGCTAG`, the log fluorescence was -0.551 z-score.
The log fluorescence of `AGTGCTATACCACTCTTGCTGTGCTAG` is reported as -0.273 z-score.
With `TCCCCTCTAGGTTCTCTGAAAGTGCTA` the log fluorescence was 0.23 z-score.
`GACGGGCTGGGTCTCGGGACGTGCTAG` gave a log fluorescence of -1.07 z-score.
`TTAGGTCTCCTACTGCTTTAGTGCTAG` has a log fluorescence of -0.0115 z-score.
With `GACGGTTTCGACATTCGGGACGTGCTA` the log fluorescence was 7.27 z-score.
`TTAGATCTCAGACTGCATTAGTGCTAG` gave a log fluorescence of -0.0104 z-score.
`TTAGGTTTCGGGTATCGATTAGTGCTA` has a log fluorescence of 7.9 z-score.
`GACGGTTTCGGTATCGAGACGTGCTAG` gave a log fluorescence of 10.3 z-score.
`GACGATTTCGGGTGTCGAGACGTGCTA` has a log fluorescence of 0.121 z-score.
For `TCAATTGTGGCTTTTTAACTGTGCTAG`, the log fluorescence was 0.105 z-score.
`TTAGGTATCGACTCTGGGTTAGTGCTA` gave a log fluorescence of 0.542 z-score.
`GATTGGCTGACTTTGGAGATGTGCTAG` has a log fluorescence of 0.000712 z-score.
With `TCCTCTTTCACTGCTCCCCAAGTGCTA` the log fluorescence was 1.41 z-score.
`AACGGACTGGGTCTCGGGACGTGCTAG` gave a log fluorescence of -0.0292 z-score.
With `TACGATTTCAGTTTCGAGACGTGCTAG` the log fluorescence was 4.94 z-score.
With `TTAGAACTGAGTATCGAATAGTGCTAG` the log fluorescence was 0.152 z-score.
For `TCACTTTTCCCCCTAGTACTGTGCTAG`, the log fluorescence was 1.77 z-score.

Set 2
Target: Ras GTPase-activating protein-binding protein 1, C-terminal RGG region (G3BP1, Homo sapiens, UniProt Q13283)
Sequence of UniProt Q13283 (whole entry, looked up): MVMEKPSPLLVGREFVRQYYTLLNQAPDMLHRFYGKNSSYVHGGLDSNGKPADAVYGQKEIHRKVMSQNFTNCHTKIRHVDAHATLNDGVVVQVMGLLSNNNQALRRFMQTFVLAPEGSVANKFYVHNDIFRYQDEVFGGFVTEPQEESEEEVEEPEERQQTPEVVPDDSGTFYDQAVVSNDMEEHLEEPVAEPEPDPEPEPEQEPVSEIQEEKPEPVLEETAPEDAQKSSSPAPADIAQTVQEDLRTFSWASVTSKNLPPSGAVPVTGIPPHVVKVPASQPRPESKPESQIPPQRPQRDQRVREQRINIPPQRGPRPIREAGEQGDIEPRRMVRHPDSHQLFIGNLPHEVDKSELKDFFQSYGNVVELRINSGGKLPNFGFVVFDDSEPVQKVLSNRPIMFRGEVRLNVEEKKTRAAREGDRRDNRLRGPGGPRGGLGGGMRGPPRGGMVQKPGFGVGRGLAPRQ
Technique: RNA Bind-n-Seq
Molecule type: RNA
Matrix: in vitro
Tested at: 1 µM
Notes: whole 134-nt RNA, ends assumed
Added: 150 mM KCl
Relative to: input library
Direction: higher = stronger binding
The log2 enrichment of `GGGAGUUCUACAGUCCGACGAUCUUUCUUCUGCUGCUGCUAGUCAUGAGAUCAAGGUGGGUCUGAGAAUGGCCAUUCAGAGGCCCUGGAUAGUAACCAGGUAAUGGAUGACACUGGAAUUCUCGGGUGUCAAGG` is reported as -1.15.
`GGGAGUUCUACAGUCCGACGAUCUCCUGUGCUACACAUCGUAUGUACCGAAUCGGGUUUUUUUGGGUUUUUGGGUUUUUGGGAAAGUAUUAUGUUACGCCGUUCGGAUCUGCAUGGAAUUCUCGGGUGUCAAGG` gave a log2 enrichment of -0.208.
`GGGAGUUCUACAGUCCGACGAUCACCAUGCAGGUGGGCAUCUUUGGGAAGUGGGGCAAGGCGGGGAUAGGGAGGGGGGUAACACUUUGGGAACAGGUGGUCCCAGGUCGUUUCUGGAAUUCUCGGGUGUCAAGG` has a log2 enrichment of -1.25.
`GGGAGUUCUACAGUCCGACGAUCCUCAAGUCCUGUGCUACACAUCGUAUGUACCGAAUCGGGAAGGAAGGGGAAGGAAAGUAUUAUGUUACGCCGUUCGGAUCUGCACUUCCAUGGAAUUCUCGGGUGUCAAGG` has a log2 enrichment of -1.28.
`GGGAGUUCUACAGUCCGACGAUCUGGCCCUGGUGGCAUGCGGGGAGGAAGAGGUGGCCUCAUGGAUCGUGGUGGUCCCGGUGGAAUCUUCAGAGGUGGCCGUGGUGGAGACAGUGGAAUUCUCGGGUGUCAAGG` gave a log2 enrichment of 1.86.
With `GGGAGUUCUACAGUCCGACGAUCCUGUGCUACACAUCGUAUGUACCGAAUCGGGGCCCCCCCGGCCCCCCCGGGGCCCCCCCGGAAAGUAUUAUGUUACGCCGUUCGGAUCUGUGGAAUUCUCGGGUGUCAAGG` the log2 enrichment was -1.33.
`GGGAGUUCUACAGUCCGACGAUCUCCUGUGCUACACAUCGUAUGUACCGAAUCGGAAAAAAAGGAAAAAAAGGUUUUUUUGGAAAGUAUUAUGUUACGCCGUUCGGAUCUGCAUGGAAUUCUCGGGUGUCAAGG` gave a log2 enrichment of -1.28.
`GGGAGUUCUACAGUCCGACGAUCCACAGACAACACGAAACCACACAGACACAGAGGGAAGGGGUUGGGAUGGGGACAGGGUGCACAGCAGGGCGGGGUAGGACCCCAGCCCCUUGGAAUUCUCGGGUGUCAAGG` gave a log2 enrichment of -0.358.
`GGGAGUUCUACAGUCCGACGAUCCCUGUGCUACACAUCGUAUGUACCGAAUCGGCCCCCCGGGGCCCCCCGGGGCCCCCCGGGGAAAGUAUUAUGUUACGCCGUUCGGAUCUGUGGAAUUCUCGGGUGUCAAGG` gave a log2 enrichment of -2.23.
`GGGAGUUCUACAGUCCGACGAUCGCAGGAAGUAAAAACAAAUGGAAAUGCUUCUGAUAGUGGCAGGGGUGGGGGUUGCUAAGGAAAGGGUGGGAUGGGAGUGGGUAAAGAGUUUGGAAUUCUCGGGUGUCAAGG` has a log2 enrichment of 1.46.

Set 3
Cell line: yeast with cyclin D1-Cln2 chimera
Read-out: cell growth
Action: binder
Technique: competitive growth deep sequencing
Molecule type: peptide
Tested at: concentration not given
Notes: peptide tiling library
Direction: direction not given
For `QYQVVDDIVSKLVFDF`, “growth enrichment score” read 0.318.
For `KPHVSDEEEEEPPFYH`, “growth enrichment score” read 1.01.
For `RDLFDCDFGDLTPLDF`, “growth enrichment score” read 1.03.
`ARKRLELGNLGNPQ`: “growth enrichment score” -0.64.
Under “growth enrichment score”, `DKYDEGLYRFNSLNDL` is recorded as 1.48.
`EAAPPTQEAQGETEPT`: “growth enrichment score” 0.163.
`KPKPVKPVTFSTGIKM` — result for “growth enrichment score”: 1.05.
For `GLPDFVFQQQPVESEA`, “growth enrichment score” read 1.01.
`ESSTVSEEDYFSSHRD` — result for “growth enrichment score”: 1.13.
For `VEEEFFALRKRTPSAG`, “growth enrichment score” read 1.16.
`DVSERGYVILPNDYFE`: “growth enrichment score” 1.06.

Set 4
Target: Sal-like protein 4, full length isoform A (SALL4, Homo sapiens, UniProt Q9UJQ4, residues 1-1053)
Sequence of UniProt Q9UJQ4 (whole entry, looked up): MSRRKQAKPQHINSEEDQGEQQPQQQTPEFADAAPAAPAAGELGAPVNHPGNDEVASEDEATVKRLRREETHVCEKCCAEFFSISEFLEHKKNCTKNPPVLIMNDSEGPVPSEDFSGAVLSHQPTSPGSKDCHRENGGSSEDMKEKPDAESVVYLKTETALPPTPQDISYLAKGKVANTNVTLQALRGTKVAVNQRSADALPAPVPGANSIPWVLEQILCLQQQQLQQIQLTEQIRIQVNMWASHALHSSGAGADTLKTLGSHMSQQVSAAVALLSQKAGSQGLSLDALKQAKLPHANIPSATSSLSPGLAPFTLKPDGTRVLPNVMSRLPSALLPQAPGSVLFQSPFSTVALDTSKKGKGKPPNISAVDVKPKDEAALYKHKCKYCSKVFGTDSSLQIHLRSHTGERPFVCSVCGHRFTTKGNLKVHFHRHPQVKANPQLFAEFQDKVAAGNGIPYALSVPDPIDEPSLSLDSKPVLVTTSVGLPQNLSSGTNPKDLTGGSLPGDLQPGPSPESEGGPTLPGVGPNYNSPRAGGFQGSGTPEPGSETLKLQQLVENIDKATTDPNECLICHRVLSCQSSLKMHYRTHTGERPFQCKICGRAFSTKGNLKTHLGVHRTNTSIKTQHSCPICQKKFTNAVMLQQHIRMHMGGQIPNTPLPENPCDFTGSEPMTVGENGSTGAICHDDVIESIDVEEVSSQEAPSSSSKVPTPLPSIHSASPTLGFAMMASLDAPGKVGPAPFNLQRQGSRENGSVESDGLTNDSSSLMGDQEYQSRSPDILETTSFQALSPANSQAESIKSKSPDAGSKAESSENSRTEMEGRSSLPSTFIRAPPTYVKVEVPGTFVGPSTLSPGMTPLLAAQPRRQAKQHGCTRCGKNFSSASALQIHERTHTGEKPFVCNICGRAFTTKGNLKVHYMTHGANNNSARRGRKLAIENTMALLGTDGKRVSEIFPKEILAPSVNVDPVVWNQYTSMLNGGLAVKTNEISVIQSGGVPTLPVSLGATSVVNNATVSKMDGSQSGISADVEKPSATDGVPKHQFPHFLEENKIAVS
Technique: universal PBM
Molecule type: double-stranded DNA, one strand shown
Matrix: in vitro
Tested at: 600 nM
Notes: 8-mer, flanks averaged, mean of replicates
Direction: higher = stronger binding
`AATAATCC` gave an E-score of 0.338.
For `ACGGCACG`, the E-score was -0.15.
For `ATATCCAC`, the E-score was 0.192.
`AAATCGGT` gave an E-score of 0.0406.
The E-score of `ACCCATCG` is reported as -0.156.
`CATATTCG` has an E-score of 0.256.
The E-score of `CAAAGGAC` is reported as -0.134.
The E-score of `ACGCCCCA` is reported as -0.175.
For `ACCGACAT`, the E-score was 0.0705.
The E-score of `CTGGTTCC` is reported as -0.231.
For `GCAGTGCC`, the E-score was -0.338.
With `TAACCCTA` the E-score was 0.0194.
With `CCGATATC` the E-score was -0.0825.
With `ACCGGACA` the E-score was -0.262.
For `AGGTATTC`, the E-score was 0.112.
`GTGGCCGA` has an E-score of -0.248.
The E-score of `ATCCATTG` is reported as 0.0612.
`AATCCCCC` gave an E-score of -0.191.
`TCAGCAGA` has an E-score of 0.0306.
`GCGAGCAA` has an E-score of -0.196.
For `ACCCAACT`, the E-score was -0.0328.
`GTTCCTGA` has an E-score of -0.0957.
`ACCTGCCC` has an E-score of -0.303.
For `GCGTAAGC`, the E-score was -0.203.
`AGGGTTTG` has an E-score of -0.0612.

Set 5
Target: Histone acetyltransferase KAT6A, winged helix 2, GST fusion (KAT6A, Homo sapiens, UniProt Q92794, residues 85-181)
Technique: protein binding microarray
Molecule type: double-stranded DNA, one strand shown
Matrix: in vitro
Tested at: not given
Notes: 8-mer, flanks averaged, mean of 2 arrays, mostly near background
Relative to: not given
Direction: higher = stronger binding
Target sequence (chain): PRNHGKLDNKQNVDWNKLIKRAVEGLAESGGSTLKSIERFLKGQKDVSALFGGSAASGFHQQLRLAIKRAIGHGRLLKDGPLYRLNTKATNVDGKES
`GATTAGAC` gave an E-score of -0.0296.
`GACTGTAA` has an E-score of -0.132.
The E-score of `AGCTCTTA` is reported as -0.0571.
With `CATTCCCG` the E-score was 0.0488.
With `CATCTGGA` the E-score was -0.0489.
With `AGCCCGCC` the E-score was 0.171.
`GGGGCAAC` gave an E-score of 0.193.
For `CGATTGTA`, the E-score was -0.0229.
`CACGCCAG` gave an E-score of 0.0674.
The E-score of `ACACCTAT` is reported as -0.134.
With `ATAAAGAG` the E-score was -0.0828.
For `CCTAGTCC`, the E-score was -0.122.
The E-score of `AGCCGATG` is reported as -0.0639.
With `GCCTCATA` the E-score was -0.168.
The E-score of `ATGGCTAC` is reported as -0.147.
`GAAACCGA` has an E-score of 0.0449.
With `ATCGTGGC` the E-score was 0.051.

A few entries again (set 1):
`TTAGGTTTCGGGTATCGATTAGTGCTA` has a log fluorescence of 7.9 z-score.
`GACGGTTTCGGTATCGAGACGTGCTAG` gave a log fluorescence of 10.3 z-score.
`GACGATTTCGGGTGTCGAGACGTGCTA` has a log fluorescence of 0.121 z-score.
For `TCAATTGTGGCTTTTTAACTGTGCTAG`, the log fluorescence was 0.105 z-score.
`TTAGGTATCGACTCTGGGTTAGTGCTA` gave a log fluorescence of 0.542 z-score.
`GATTGGCTGACTTTGGAGATGTGCTAG` has a log fluorescence of 0.000712 z-score.
With `TCCTCTTTCACTGCTCCCCAAGTGCTA` the log fluorescence was 1.41 z-score.
`AACGGACTGGGTCTCGGGACGTGCTAG` gave a log fluorescence of -0.0292 z-score.
With `TACGATTTCAGTTTCGAGACGTGCTAG` the log fluorescence was 4.94 z-score.
With `TTAGAACTGAGTATCGAATAGTGCTAG` the log fluorescence was 0.152 z-score.
For `TCACTTTTCCCCCTAGTACTGTGCTAG`, the log fluorescence was 1.77 z-score.
